Measurements gathered from unrelated publications.
Each line is one published result; not all experiments were run side by side. Converted amounts (≈) assume the structure as drawn.
Chain of UniProt Q15835 (whole entry, looked up): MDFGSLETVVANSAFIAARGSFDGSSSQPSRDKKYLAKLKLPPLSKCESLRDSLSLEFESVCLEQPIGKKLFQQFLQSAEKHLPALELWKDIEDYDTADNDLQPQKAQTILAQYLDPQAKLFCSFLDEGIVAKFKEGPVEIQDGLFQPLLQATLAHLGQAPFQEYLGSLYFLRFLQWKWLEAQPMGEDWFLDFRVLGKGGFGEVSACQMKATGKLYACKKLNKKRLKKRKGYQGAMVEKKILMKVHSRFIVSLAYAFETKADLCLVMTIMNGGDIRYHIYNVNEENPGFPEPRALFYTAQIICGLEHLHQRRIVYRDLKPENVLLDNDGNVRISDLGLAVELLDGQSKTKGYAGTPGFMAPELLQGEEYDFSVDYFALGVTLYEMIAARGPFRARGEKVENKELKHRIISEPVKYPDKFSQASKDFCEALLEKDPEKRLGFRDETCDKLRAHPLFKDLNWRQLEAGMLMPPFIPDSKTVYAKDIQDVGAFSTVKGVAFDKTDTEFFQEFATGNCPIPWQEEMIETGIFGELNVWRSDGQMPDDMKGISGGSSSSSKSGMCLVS
Chain of UniProt P50750 (whole entry, looked up): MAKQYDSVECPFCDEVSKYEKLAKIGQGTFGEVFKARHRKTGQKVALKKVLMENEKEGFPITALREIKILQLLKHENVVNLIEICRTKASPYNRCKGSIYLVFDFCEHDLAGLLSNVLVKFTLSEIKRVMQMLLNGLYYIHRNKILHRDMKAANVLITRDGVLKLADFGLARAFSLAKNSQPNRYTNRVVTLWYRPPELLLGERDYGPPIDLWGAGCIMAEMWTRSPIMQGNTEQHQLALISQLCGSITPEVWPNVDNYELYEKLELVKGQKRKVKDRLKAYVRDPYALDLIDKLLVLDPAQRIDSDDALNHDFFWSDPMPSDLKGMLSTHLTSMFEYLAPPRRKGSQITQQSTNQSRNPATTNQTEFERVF
Chain of UniProt Q32MK0 (whole entry, looked up): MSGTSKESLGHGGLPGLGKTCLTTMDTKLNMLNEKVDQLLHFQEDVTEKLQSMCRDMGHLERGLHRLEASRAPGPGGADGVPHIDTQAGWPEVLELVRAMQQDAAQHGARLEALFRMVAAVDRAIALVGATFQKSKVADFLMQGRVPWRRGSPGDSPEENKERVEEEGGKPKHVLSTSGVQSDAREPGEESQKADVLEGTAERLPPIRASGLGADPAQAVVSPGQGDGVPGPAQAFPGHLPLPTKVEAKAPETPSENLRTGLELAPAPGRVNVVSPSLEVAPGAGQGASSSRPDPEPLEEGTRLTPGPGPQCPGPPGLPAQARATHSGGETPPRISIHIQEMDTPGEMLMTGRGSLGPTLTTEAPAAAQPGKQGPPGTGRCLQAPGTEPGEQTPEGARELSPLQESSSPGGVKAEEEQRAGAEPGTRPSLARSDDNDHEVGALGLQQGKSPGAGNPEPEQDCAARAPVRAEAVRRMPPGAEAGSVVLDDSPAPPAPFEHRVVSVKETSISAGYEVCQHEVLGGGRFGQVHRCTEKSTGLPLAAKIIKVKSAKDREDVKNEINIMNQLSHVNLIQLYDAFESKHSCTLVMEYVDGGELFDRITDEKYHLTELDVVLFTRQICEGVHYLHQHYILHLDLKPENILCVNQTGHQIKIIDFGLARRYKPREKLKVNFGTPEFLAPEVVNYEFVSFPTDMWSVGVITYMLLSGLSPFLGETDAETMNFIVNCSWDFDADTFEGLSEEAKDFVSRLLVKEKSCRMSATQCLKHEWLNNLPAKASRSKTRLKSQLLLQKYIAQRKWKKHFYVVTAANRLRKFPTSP
Chain of UniProt Q5TCY1 (whole entry, looked up): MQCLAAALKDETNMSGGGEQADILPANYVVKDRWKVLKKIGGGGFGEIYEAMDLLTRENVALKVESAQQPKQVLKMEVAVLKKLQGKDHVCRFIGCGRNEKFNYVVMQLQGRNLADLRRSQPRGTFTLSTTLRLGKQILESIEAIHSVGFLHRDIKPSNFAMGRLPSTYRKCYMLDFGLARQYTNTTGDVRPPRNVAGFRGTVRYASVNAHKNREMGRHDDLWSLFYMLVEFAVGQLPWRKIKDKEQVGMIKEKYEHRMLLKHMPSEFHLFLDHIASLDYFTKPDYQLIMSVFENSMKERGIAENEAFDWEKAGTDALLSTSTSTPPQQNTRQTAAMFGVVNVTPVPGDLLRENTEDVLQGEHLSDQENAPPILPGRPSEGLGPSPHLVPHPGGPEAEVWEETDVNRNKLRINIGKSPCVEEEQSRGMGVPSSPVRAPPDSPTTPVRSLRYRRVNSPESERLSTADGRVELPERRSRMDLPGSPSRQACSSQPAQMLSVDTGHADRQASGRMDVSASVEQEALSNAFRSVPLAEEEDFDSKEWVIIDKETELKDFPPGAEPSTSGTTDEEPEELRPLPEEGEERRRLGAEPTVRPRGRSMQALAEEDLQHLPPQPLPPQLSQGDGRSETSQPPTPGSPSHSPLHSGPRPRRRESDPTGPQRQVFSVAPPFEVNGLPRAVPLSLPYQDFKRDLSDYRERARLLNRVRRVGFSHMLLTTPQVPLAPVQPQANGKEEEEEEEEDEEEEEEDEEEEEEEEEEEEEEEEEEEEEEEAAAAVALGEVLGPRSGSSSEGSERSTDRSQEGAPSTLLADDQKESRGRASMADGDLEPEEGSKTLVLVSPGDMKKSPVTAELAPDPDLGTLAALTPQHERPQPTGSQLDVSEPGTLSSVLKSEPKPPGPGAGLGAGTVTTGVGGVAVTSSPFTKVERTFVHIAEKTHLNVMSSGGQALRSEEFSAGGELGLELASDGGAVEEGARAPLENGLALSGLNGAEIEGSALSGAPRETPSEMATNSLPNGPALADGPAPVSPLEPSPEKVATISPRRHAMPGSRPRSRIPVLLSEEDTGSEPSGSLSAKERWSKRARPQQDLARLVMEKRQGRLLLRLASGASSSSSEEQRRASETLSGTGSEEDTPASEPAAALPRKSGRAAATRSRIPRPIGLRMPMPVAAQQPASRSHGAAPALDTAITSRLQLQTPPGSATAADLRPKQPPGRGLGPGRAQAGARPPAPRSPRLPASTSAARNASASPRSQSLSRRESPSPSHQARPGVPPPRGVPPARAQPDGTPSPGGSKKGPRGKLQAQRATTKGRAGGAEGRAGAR
Chain of UniProt Q16832 (whole entry, looked up): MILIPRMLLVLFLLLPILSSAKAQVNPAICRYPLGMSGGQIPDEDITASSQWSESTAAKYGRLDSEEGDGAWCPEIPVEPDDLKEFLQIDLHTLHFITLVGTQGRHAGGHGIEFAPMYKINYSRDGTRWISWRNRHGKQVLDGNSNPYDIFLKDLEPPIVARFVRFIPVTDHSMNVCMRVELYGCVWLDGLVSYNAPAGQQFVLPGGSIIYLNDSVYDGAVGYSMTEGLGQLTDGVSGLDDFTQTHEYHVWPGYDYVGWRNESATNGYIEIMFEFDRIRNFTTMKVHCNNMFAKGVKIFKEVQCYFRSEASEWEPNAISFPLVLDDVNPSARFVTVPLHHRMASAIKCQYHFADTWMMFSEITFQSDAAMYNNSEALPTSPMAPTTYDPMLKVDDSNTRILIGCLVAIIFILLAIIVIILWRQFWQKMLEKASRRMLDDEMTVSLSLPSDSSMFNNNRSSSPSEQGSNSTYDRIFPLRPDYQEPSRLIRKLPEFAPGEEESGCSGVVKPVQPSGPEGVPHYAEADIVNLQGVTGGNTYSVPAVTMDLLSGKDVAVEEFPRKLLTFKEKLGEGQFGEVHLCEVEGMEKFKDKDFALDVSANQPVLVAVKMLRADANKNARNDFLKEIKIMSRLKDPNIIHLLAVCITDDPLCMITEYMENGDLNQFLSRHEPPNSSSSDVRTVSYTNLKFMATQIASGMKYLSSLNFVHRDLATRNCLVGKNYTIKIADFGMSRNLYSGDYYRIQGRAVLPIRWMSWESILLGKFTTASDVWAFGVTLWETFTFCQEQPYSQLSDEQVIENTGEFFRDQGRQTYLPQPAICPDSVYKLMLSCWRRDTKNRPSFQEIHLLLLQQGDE

With O=C(c1ccc(F)cc1)C1CCN(CCn2c(=O)[nH]c3ccccc3c2=O)CC1 the compound remaining was 15.5% (metabolic stability; rat, liver microsomes; 45 min).
For C=CC(=O)N1CCC(COCC(=O)N2CCN(c3nc(-c4cnc(N)nc4C(F)F)nc(N4CCOC[C@@H]4C)n3)CC2)CC1, the remaining binding was 100% (DDR2 (Homo sapiens, UniProt Q16832); binding, competition with immobilised ligand; 1 µM).
COc1cccc(-c2n[nH]c(SCc3ccccn3)n2)c1OC has a concentration of 70700 ng/mL (male Sprague-Dawley rat, plasma; oral, 100 mg/kg, 30 min, single dose).
The Vd of O=C1CC[C@H](N2Cc3cc(N4CCN(CC5CCN(c6ccc([C@@H]7c8ccc(O)cc8CC[C@@H]7c7ccccc7)cc6)CC5)CC4)ccc3C2=O)C(=O)N1 is reported as 3.06 L/kg (female Sprague-Dawley rat, plasma; intravenous, 5 mg/kg, fed).
The kinetic solubility of Cn1nc2c(=O)n(C3CC3)ccc2c1[C@](O)(c1ccc(C(F)(F)F)c(Cl)c1)C(F)(F)F is reported as 5 to 10 µM (≈ 2.33 to 4.66 µg/mL) (nephelometry; aqueous buffer; 30 min, pH 6.5).
For Cc1noc(C)c1Cn1cc(N2C(=O)CN(Cc3cccc(O)c3)C2=O)cn1, the concentration was 105 ng/mL (male Sprague-Dawley rat, plasma; oral, 100 mg/kg, 30 min, single dose).
COc1ccc2c(=O)n(C)c(-c3ccccc3)nc2c1 has a concentration of 13.5 ng/mL (male Sprague-Dawley rat, plasma; oral, 30 mg/kg, 15 min).
Cc1cc([C@@H](C)Nc2ccccc2C(=O)O)c2nc(N3CCC(F)(F)CC3)c(C#N)c(=O)n2c1 has a remaining binding of 95% (CDK9 (Homo sapiens, UniProt P50750); binding, competition with immobilised ligand; 10 µM).
The kinetic solubility of CCn1cc(C2CC2)c2c(CN3CCC(F)(F)CC3)n(C)nc2c1=O is reported as 50 to 100 µM (≈ 17.5 to 35 µg/mL) (nephelometry; aqueous buffer; 30 min, pH 6.5).
The Tmax of Cc1c(C(=O)O)ccc2c3n(nc12)[C@@H]1[C@H](C3)N(CC2CC2)[C@@]2(C(=O)Nc3cc(Cl)ccc32)[C@H]1c1cccc(Cl)c1F is reported as 2.3 h (female minipig, plasma; oral, 2 mg/kg).
The remaining binding of CCCCC(=O)Nc1ccc(-c2ccc3ncn(CCC)c(=O)c3c2)cn1 is reported as 100% (MYLK3 (Homo sapiens, UniProt Q32MK0); binding, competition with immobilised ligand; 0.5 µM).
For COc1cc(-c2cncc3c2CN(C)Cc2cc(N4CCNCC4)ccc2-3)cc(OC)c1OC, the remaining activity was 94% (GRK1 (Homo sapiens, UniProt Q15835); enzyme activity, inhibitor; 1 µM).
CCOC(=O)[C@@]12C[C@@H]1[C@@H](n1ccc3c(NC)nc(C#Cc4ccc(Cl)s4)nc31)[C@H](O)[C@@H]2O gave a concentration of 5.76 ng/mL (male Sprague-Dawley rat, plasma; intravenous, 0.5 mg/kg, 2 h).
CCn1ccc2c([C@](C)(O)c3cnc(C(F)(F)F)c(Cl)c3)n(C)nc2c1=O has a kinetic solubility of 80 to 160 µM (≈ 32.1 to 64.1 µg/mL) (nephelometry; aqueous buffer; 30 min, pH 6.5).
For CNc1ncc2c(/C=C/C(=O)N3CCC(OC)CC3)nn(Cc3cccc(C(F)(F)F)c3)c2n1, the remaining activity was 103% (TTBK1 (Homo sapiens, UniProt Q5TCY1); enzyme activity, inhibitor, radiometric; 1 µM).

Excerpt of the above:
For Cc1noc(C)c1Cn1cc(N2C(=O)CN(Cc3cccc(O)c3)C2=O)cn1, the concentration was 105 ng/mL (male Sprague-Dawley rat, plasma; oral, 100 mg/kg, 30 min, single dose).
COc1ccc2c(=O)n(C)c(-c3ccccc3)nc2c1 has a concentration of 13.5 ng/mL (male Sprague-Dawley rat, plasma; oral, 30 mg/kg, 15 min).
